Published values from different studies.
Parts stem from different laboratories: compare values within a part only.

Block 1 — method: RNA Bind-n-Seq; molecule type: RNA; matrix: in vitro; concentration: not given; setting: RNA with constant flanks, ends assumed; reference: input RNA pool; direction: higher = stronger binding; measurement: bound/input enrichment
Target: RING finger protein unkempt homolog, zinc fingers 1-6, GST-SBP tag (UNK, Homo sapiens, UniProt Q9C0B0, residues 30-357)
UniProt Q9C0B0, sequence (30-357, looked up): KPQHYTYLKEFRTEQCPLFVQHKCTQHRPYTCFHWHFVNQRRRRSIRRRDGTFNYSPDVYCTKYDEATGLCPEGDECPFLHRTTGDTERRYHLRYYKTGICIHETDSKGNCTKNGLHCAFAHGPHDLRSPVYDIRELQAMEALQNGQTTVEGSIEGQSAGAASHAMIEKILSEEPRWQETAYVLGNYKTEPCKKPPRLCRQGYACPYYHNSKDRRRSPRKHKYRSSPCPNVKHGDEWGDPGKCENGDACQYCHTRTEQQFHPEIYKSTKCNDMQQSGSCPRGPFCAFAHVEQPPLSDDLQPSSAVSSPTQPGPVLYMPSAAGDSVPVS
Constant ends, left off below: GGGAGUUCUACAGUCCGACGAUC … CAACAGAGGAUUGAGCAUCA
AGGCGUCACCUUGAUGGCCUGCAACCCCUCCCUGCCUCAUUCUUAGUUCAAGAUCGUCUUCCGUCUCGCUGCGUCCCUUUCCCUUGCACCUGUUAACAUCUUUAAGGCAGGAGCUGAUGA: 0.577 ratio
UGUAUCGCCUUUUUUAACAUCCUUAAUGAGUUAAACGACUAUGCAGGACAGCGAGAGGCCGCCGCAGAAGAAAUGGCGCACAGAGUAUAUGGUGAAUUAAUGAGAUAUGCCCAUGAUCUG: 0.238 ratio
GUCAACCGUGUUACCAUACUGUGUGACAAAUUUAGUGGCCAUCCCAAAGGGUUUGCGUAUACCGAGUUCUCAGACAAAGAGUCAGUGAGGACUUCCUUGGCCUUAGAUGAGUCCCUAUUU: 0.42 ratio
AGGAAUCAAGUGCUACCACUUUCUGAUGUGGAUACAACUUCUGCUACAGAUAUUCAAAGAGCCGCUGUGCUAUGUGUUUCCAGAUCUGCUUAUUGUUUGGGUUCAAGCCACCCCAGAGGA: 0.144 ratio
GGCAAAGUACAACAGCUACCAAAAUAUACAUCUCAAAUUGUGGGUAGAUUCAUUAAGCCUCUCCGCAAUGCAUACCACGAGUUAGCACAAGUGUAUUCAACCAACAACCCCUCAGAACUC: 0.3 ratio
CACUCCCAAGGCGUCUCCUUUAGUUAAAUGGUUUCCCCAAGGUCACCUUUUUGUAAUCGCCACCGUUUGGGCUACAGGAUGAGACACUAUCUCCACAAACAAGGAAGCCAAUACUCUUAA: 0.325 ratio
ACAGUUAGCAAGCGAAGUGUUAAAUGGAGAAGAUGCUUGUUUUUAUUAAACAUUUGGAGAUUCCGAUAAUUUACAUUUUAACUGAAUGUCUAAAGUGAUUAUCUUCCCCUCCCUCCCCCA: 0.328 ratio
CCUUGUUCACUGGAUUGUCUGGGGUGACUUGGGCUCAUAUCCACAAUAUUUGGUAUACGGCCGCCGGUUGGUGGGGGUGGGGGUGGGGAGCUAGGAUAUAGGGCAGGGAUACAUACAGUU: 13.9 ratio

Block 2 — method: protein binding microarray; molecule type: double-stranded DNA, one strand shown; matrix: in vitro; concentration: not given; reference: not given; direction: higher = stronger binding; measurement: E-score
Target: Histone acetyltransferase KAT6A, winged helix 2, GST fusion (KAT6A, Homo sapiens, UniProt Q92794, residues 85-181)
Setting: 8-mer, flanks averaged, mean of 2 arrays, mostly near background
Target sequence (chain): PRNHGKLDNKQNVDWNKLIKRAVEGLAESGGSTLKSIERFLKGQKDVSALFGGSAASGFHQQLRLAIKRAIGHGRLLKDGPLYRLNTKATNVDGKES
CCAGCCTC: -0.0994
ACGTGCCT: 0.00337
TGAGGCAA: 0.033
GATTTTCA: 0.00187
CGGACTAC: -0.163
AAAACTTG: 0.13
CCTCTGTC: -0.0222
CTCCTTAC: -0.195
ACTGGTGC: 0.0515
GCATGCCC: 0.103
GCTCCCCA: -0.242
ACTACTCG: -0.102
GCATGAAC: 0.0834
CGAGGTCC: 0.186
GCCGGCCA: 0.175
CCATGAGC: -0.0593
TCCCACGA: 0.148
CGTGTGTC: -0.082
CACTCTAG: 0.115
CTGCCTGA: 0.059
CGGGCACG: 0.148

Block 3 — method: RNA Bind-n-Seq; molecule type: RNA; matrix: in vitro; concentration: 365 nM; reference: no-protein control; direction: higher = stronger binding; measurement: RBNS enrichment (R)
Target: RNA binding protein fox-1 homolog 2, RRM domain, GST-SBP tag (RBFOX2, Homo sapiens, UniProt O43251-10, residues 100-194)
Setting: natural RNA segment, single round, ends assumed
Constant ends, left off below: GGGAGUUCUACAGUCCGACGAUC … UGGAAUUCUCGGGUGCCAA
Target sequence (chain): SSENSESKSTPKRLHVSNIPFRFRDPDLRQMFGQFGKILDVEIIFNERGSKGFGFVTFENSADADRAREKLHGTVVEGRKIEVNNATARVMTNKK
AGCAUCCUUAGAUUGGCUCAACUGUUACUUUCCUAAGGAGUCCUUCUACAGAAUAGGUCAGAUCUUGGCCUCCCAAACCCCUUAUUUUUAAAAUACUUUGCGCCUUGCUU: 17.5
GUAAAGCGCCCAGCAGGAACCACAGGCACUCUGUGCUGUUUGUACUUGAGGUAUGUACCAUUUGUAUACCUGAAUUUAUUUUAAAGAUAAACUGAAAUGCACAUAGCCAA: 0.455
AGAGUUUUACCAAGAUGAAAAGGGUUGAAACACCUGUGAGUGCCUUACAUGGGAAGAACUGCUCUAACCCACUGUGCUAAUGUUCAGAAGCAGAGCCCUCAGUGAGAGCU: 0.327
UAUCUAUAUGUGUGUAUACAUAUAUAAUAUAUACACACAGAUACAAGUGUACACACACACACCACACACCACACACACCCCACUGGCAGUCUUUGUGGAUUAGGAUGGGG: 0.436
UAUUUGAUGACUGUUUCUUGUGGAAGCCCAAAGUCCACUCUAAGAGCAGAAGAAAUACCAAAAUGUUUCCAAAAUUUUUUUAAAAGCUGAGAUUUCCAGCUUUAUAACCA: 0.479
ACAGCAGCUUGUUACCAACAUUUUAAACCAAAUACUAAAAAGGUUUUUAAAGUCCUAGUAGAAAAAGUCAAAUACAUCUGCAUUUAAUUUAUGUCUGCAUAUUCUUCUAG: 0.455
AUUCUGUUUCCUGCAGUGGGAACUGGCCAUGUAGUCUUAACAGUCUUUUGUACAAAUAUCUACAAAGCAGAUAAUAUCCCUAUCCAGUGCUUGCCCUUGGAAUUGUCUCU: 0.36
AGUGGGACUUCCGCGUCUCUCCCUAGUCUUAUCCCCUUUGGAUGAUGGCAGAAACUUCAUGAACCAGCCCUUUCUCAGAGCCAGUGAUGUGAGUGUAUCAGAAUGCCAGG: 0.194

Block 4 — method: universal PBM; molecule type: double-stranded DNA, one strand shown; matrix: in vitro; concentration: not given; direction: higher = stronger binding; measurement: E-score
Target: Sal-like protein 4, full length isoform B (SALL4, Homo sapiens, UniProt Q9UJQ4-2, residues 1-616)
Setting: 8-mer, flanks averaged, mean of replicates
Target sequence (chain): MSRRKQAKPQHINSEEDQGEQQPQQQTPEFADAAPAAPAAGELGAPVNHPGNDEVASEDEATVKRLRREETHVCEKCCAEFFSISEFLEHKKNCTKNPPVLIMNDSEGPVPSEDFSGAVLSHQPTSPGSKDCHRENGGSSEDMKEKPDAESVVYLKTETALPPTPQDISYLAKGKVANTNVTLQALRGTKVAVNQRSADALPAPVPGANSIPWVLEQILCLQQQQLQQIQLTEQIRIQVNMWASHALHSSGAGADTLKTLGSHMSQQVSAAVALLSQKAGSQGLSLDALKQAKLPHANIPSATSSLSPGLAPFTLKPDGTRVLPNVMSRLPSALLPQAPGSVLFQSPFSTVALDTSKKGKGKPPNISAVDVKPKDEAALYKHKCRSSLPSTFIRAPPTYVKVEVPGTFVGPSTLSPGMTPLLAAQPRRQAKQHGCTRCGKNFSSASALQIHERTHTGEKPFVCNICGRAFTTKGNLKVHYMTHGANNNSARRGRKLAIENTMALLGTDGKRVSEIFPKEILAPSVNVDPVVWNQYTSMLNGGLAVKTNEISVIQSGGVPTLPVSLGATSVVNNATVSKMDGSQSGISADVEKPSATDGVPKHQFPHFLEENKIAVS
ACGGTACG: -0.086
CAAATCAC: -0.0107
CTCAGAAG: -0.19
CCTTTGTA: 0.114
AAGAATCG: -0.00374
ACCGTCCT: 0.0741
ACAGTCAA: -0.0151
CATGTGGA: -0.0146
ATTCGCGG: 0.0783
AGCCAACT: -0.0713
ATTTGTTG: 0.22
ACTTAAGG: 0.0447
AACTTTAT: 0.296
CCACCATC: -0.234
ACGGATAA: 0.1
GTCACCTA: -0.0803

A few entries again (block 2):
CCATGAGC: -0.0593
TCCCACGA: 0.148
CGTGTGTC: -0.082
CACTCTAG: 0.115
